Assay results collected from several papers.
Lines come from different studies, so protocols differ. Values joined by “and” are separate records of one study, mostly repeats; a detail may differ. ± marks the error that the study gave.

O=c1ccc2ncc(=O)n3c2n1C[C@H]3CN1CCC(NCc2cc3c(cn2)OCCC3)CC1  AUC(0-24) (healthy human volunteers, urine; oral, dose not given, arithmetic mean, together with: rifampicin): 1630 µg·h/mL
OC[C@H]1OC(O)[C@H]([18F])[C@@H](O)[C@@H]1O (some centres unmarked)  nasal clearance amplitude B (PET/CT, bi-exponential fit; Sprague-Dawley rat, nasal cavity; intranasal; baseline: dose): 60.7%
O=S(=O)(Nc1ccccc1)c1ccc(NC(=S)Nc2ccccc2)cc1  serum enzyme activity (item: ALKP; male mouse, blood; oral, 80 mg/kg daily, 14 days): 138 U/L
C[C@@H]1OC(=O)NN=C1c1ccc(-c2ccc(F)cc2)c(C(F)(F)F)c1  patients with adverse event (phase I trial, item: Presyncope all grades; human patients; 5 mg loading then 0.25 mg daily): 0%
CC(C)Nc1ccnc(Nc2cccc(-c3cccnc3)c2)n1  blood chemistry (item: Glucose; mouse, blood; intraperitoneal, 10 mg/kg): 133 mg/dL
CC(C)C[C@H](NC(=O)[C@H](CCCCN)NC(=O)OCC1c2ccccc2-c2ccccc21)C(=O)N[C@H](C(=O)N[C@@H](Cc1ccccc1)C(=O)N[C@@H](Cc1ccccc1)C(=O)N[C@@H](CCCCN)C(=O)NCC(=O)N[C@@H](Cc1ccccc1)C(=O)N[C@@H](C)C(=O)N[C@@H](Cc1c[nH]c2ccccc12)C(=O)N[C@@H](CC(N)=O)C(=O)N[C@H](C(=O)N[C@H]1CSSC[C@@H](C(=O)N[C@@H](Cc2c[nH]cn2)C(=O)N[C@@H](CCCNC(=N)N)C(=O)N[C@@H](CCCNC(=N)N)C(=O)N[C@@H](C)C(=O)N[C@@H](CC(N)=O)C(N)=O)NC(=O)[C@H](C(C)C)NC(=O)[C@H](CCCNC(=N)N)NC(=O)[C@H](C(C)C)NC(=O)CNC(=O)[C@H](CC(N)=O)NC(=O)[C@H](CCCNC(=N)N)NC(=O)[C@H](Cc2ccc(O)cc2)NC(=O)[C@H](C(C)C)NC1=O)C(C)C)C(C)C  remaining peptide (HPLC; mouse mammary gland homogenate; 2560 µM, 16.00 h, 37 °C, 50 mg/mL tissue): 56.8% and 54% and 52.1%
Cc1cccc(Cn2nc(C3CC3)c3c(NC(=O)c4cnc5cc(OCCN6CCN(C)CC6)ccn45)cccc32)n1  all-cause adverse events (CTCAE v4.03, item: vomiting; platinum-resistant ovarian cancer patients; oral, dose not given, together with: pembrolizumab IV every 3 weeks): 9.1%
CO[C@H]1C[C@@H]2CC[C@@H](C)[C@@](O)(O2)C(=O)C(=O)N2CCCC[C@H]2C(=O)O[C@H]([C@H](C)C[C@@H]2CC[C@@H](OC(=O)NCCOCCOCCOCCOCCOCCOCCOCCOCCC(=O)N3CCc4cc(Cn5nc(-c6ccc7oc(N)nc7c6)c6c(N)ncnc65)ccc4C3)[C@H](OC)C2)C[C@@H](O)[C@H](C)/C=C(\C)[C@@H](O)[C@@H](OC)C(=O)[C@H](C)C[C@H](C)/C=C/C=C/C=C/1C  any TRAE incidence (phase 1 dose escalation; advanced solid tumour patients; intravenous, 6 mg weekly, grade ≥3): 33.3%
CC(C)NCCCC[C@@H]1NC(=O)[C@H](Cc2ccc(O)cc2)NC(=O)[C@H](Cc2ccccc2)NC(=O)CC[C@H](C(=O)N[C@@H](CCCCNC(C)C)C(=O)N[C@@H](CCCCNC(=O)[C@H](CCC(=O)O)NC(=O)[C@H](CCC(=O)O)NC(=O)[C@H](CCC(=O)O)NC(=O)CN2CCN(CC(=O)O)CCN(CC(=O)O)CC2)C(N)=O)NC(=O)CNC(=O)[C@H](Cc2ccc3ccccc3c2)NC(=O)[C@@H](CCCNC(=N)N)NC1=O [fluorine-18 labelled]  peak SUV (PET; mouse, naive, bone; 4.5 min post-injection): 1.18 ± 0.15 g/mL
CCN1[C@@H](C(=O)NC23CCC(C(=O)O)(CC2)CC3)[C@H](c2cccc(Cl)c2F)[C@]2(C(=O)Nc3cc(Cl)ccc32)C12CCCCC2  abdominal pain incidence (patients with advanced solid tumours; oral, 150 mg): 12.5%
CC[C@H](C)[C@H](NC(=O)[C@H](Cc1ccccc1)NC(=O)[C@H](CCC(=O)O)NC(=O)[C@H](CCCNC(=N)N)NC(=O)[C@H](C)NC(=O)[C@H](C)NC(=O)[C@H](CCC(N)=O)NC(=O)[C@H](CCC(=O)O)NC(=O)[C@H](CCC(=O)O)NC(=O)[C@H](CC(C)C)NC(=O)[C@H](Cc1ccc(O)cc1)NC(=O)[C@H](CO)NC(=O)[C@H](CO)NC(=O)[C@@H](NC(=O)[C@H](CC(=O)O)NC(=O)[C@H](CO)NC(=O)[C@@H](NC(=O)[C@H](Cc1ccccc1)NC(=O)[C@@H](NC(=O)CNC(=O)[C@H](CCC(=O)O)NC(=O)[C@H](C)NC(=O)CCc1cnc[nH]1)[C@@H](C)O)[C@@H](C)O)C(C)C)C(=O)N[C@@H](C)C(=O)N[C@@H](Cc1c[nH]c2ccccc12)C(=O)N[C@@H](CC(C)C)C(=O)N[C@H](C(=O)N[C@@H](CCCNC(=N)N)C(=O)NCC(=O)N[C@@H](CCCNC(=N)N)C(=O)N[C@@H](CCCCNC(=O)COCCOCCNC(=O)COCCOCCNC(=O)CC[C@H](NC(=O)CCCCCCCCCCCCCCCCC(=O)O)C(=O)O)C(=O)NCC(=O)NCC(=O)N[C@@H](CO)C(=O)N[C@@H](CCCCNC(=O)[C@H](CCCCNC(=O)[C@H](CCCCNc1c(NCCCCCN(O)C(=O)CCC(=O)NCCCCCN(O)C(=O)CCC(=O)NCCCCCN(O)C(C)=O)c(=O)c1=O)Nc1c(NCCCCCN(O)C(=O)CCC(=O)NCCCCCN(O)C(=O)CCC(=O)NCCCCCN(O)C(C)=O)c(=O)c1=O)NC(=O)[C@H](CCCCNc1c(NCCCCCN(O)C(=O)CCC(=O)NCCCCCN(O)C(=O)CCC(=O)NCCCCCN(O)C(C)=O)c(=O)c1=O)Nc1c(NCCCCCN(O)C(=O)CCC(=O)NCCCCCN(O)C(=O)CCC(=O)NCCCCCN(O)C(C)=O)c(=O)c1=O)C(=O)O)C(C)C [zirconium-89 labelled]  tissue uptake (ex vivo gamma counting; male Sprague-Dawley rats, liver; intravenous, 1 nmol, 24 h): 3.67 %ID/g
NCCCC[C@@H]1NC(=O)[C@@H](Cc2c[nH]c3ccccc23)NC(=O)[C@H](c2ccccc2)NC(=O)[C@@H]2C[C@@H](OC(=O)NCCN)CN2C(=O)[C@H](Cc2ccccc2)NC(=O)[C@H](Cc2ccc(OCc3ccccc3)cc2)NC1=O  subjects with adverse event Hyperhidrosis (healthy human volunteers; 1950 µg twice daily): 4%
CC[C@H](C)[C@@H]1NC(=O)[C@@H]2CCCN2C(=O)[C@H](CC(C)C)NC(=O)[C@H](CC(C)C)NC(=O)CNC(=O)[C@@H](NC(=O)[C@@H](NC(=O)[C@H](CC(=O)O)NC(=O)CNC(=O)[C@@H](NC(=O)[C@H](C)NC(=O)CNC(=O)[C@H](CCCCN)NC(=O)[C@H](CC(C)C)NC(=O)[C@H](CC(C)C)NC(=O)[C@H](CCCCN)NC(=O)CNC(=O)[C@@H](NC(=O)[C@@H](N)CC(C)C)C(C)C)C(C)C)C(C)C)CSSC[C@@H](C(=O)O)NC1=O  plasma half-life (female C57BL/6 mouse, plasma; intravenous, 10 mg/kg): 2.79 ± 0.11 h
O=C1Nc2cc3[nH]nc(-c4ccncc4)c3cc2CN1Cc1ccccc1  patients with cough (CTCAE v4.03; advanced solid tumour patients; intravenous, 9.6 mg/kg, schedules 1/2): 0%

Some of these lines once more:
CC(C)NCCCC[C@@H]1NC(=O)[C@H](Cc2ccc(O)cc2)NC(=O)[C@H](Cc2ccccc2)NC(=O)CC[C@H](C(=O)N[C@@H](CCCCNC(C)C)C(=O)N[C@@H](CCCCNC(=O)[C@H](CCC(=O)O)NC(=O)[C@H](CCC(=O)O)NC(=O)[C@H](CCC(=O)O)NC(=O)CN2CCN(CC(=O)O)CCN(CC(=O)O)CC2)C(N)=O)NC(=O)CNC(=O)[C@H](Cc2ccc3ccccc3c2)NC(=O)[C@@H](CCCNC(=N)N)NC1=O [fluorine-18 labelled]  peak SUV (PET; mouse, naive, bone; 4.5 min post-injection): 1.18 ± 0.15 g/mL
